Published values from different studies.
Numbered parts are unrelated; each lists some results of a single study. Changes are numbered by the printed parent chain.

Set 1
Target: CCNF, cyclin fold, Cln2 fusion (human)
Technique: yeast growth competition, sequencing
Medium: yeast
Setting: strong parent motif
Baseline: not given
Reading: higher = stronger binding
Parent: CDC6 docking peptide (human); TLKGRRLVFDNQL
Variant	normalised enrichment score
N11K	8.29
R6H	5.99
L2C	7.64
Q12T	8.7
G4R	3.54
K3G	6.26
Q12E	9.08
Q12G	8.87

Set 2
Target: ABI1, truncated, D143A, DHFR fusion (Arabidopsis thaliana)
Technique: DHFR PCA, deep sequencing
Medium: yeast
Setting: methotrexate growth selection, single substitutions
Added: (+)-ABA 58 µM
Baseline: wild-type fitted maximum
Reading: higher = stronger binding
Parent: PYL1, truncated, DHFR fusion (Arabidopsis thaliana); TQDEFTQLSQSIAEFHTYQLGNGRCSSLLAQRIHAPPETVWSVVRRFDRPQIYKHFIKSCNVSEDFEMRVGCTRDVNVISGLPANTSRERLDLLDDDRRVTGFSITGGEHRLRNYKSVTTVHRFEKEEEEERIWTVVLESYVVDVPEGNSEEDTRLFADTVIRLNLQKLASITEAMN; partner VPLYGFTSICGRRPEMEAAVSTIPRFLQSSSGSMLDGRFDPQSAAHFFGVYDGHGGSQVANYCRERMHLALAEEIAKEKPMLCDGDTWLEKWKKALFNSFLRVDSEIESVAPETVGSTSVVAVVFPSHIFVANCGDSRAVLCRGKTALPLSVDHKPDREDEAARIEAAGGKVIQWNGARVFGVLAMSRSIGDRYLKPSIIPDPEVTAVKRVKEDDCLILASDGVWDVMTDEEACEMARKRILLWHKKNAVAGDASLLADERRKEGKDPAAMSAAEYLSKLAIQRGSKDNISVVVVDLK
Variant	relative binding score [%]
T106M	92.7
P50K	-11.4
Q2E	87.5
H55L	88.5
D75Y	77.5
P36Y	66.8

Set 3
Target: CREB3L1, bZIP domain (human)
Technique: DHFR protein complementation
Medium: yeast
Setting: single substitutions, most at no-binding floor
Baseline: wild-type JUN-FOS pair
Reading: higher = stronger binding
Parent: JUN, bZIP domain (human); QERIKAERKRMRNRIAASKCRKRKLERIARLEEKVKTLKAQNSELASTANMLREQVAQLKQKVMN; partner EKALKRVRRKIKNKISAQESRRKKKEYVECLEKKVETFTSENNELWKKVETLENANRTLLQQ
Variant	binding fitness [natural log]
K34T	-1.42
Q41R	-1.44
M51K	-1.32
I28Q	-1.44
K39C	-1.41
Q41V	-1.47
E33R	-1.38
K39N	-1.48
K36C	-1.47
K39I	-1.48

Mixed results
Molecule	target	assay	test system	conditions	scale	endpoint	result
PhoQ, residues 284 288 289 292 302 303 SLCLSL	PhoP, residues 12 14 15 18 19 SQCLL (Escherichia coli, UniProt P23836)	Sort-seq, refers to: YFP reporter	E. coli	PhoQ-PhoP variant library, added: 10 µM Mg2+	baseline: high Mg2+ state, higher = stronger signaling	fold induction	1.32

Repeated from above (set 2):
Variant	relative binding score [%]
H55L	88.5
D75Y	77.5
